Measured values pooled from the literature.
A part holds a random share of what one study measured. Changes are numbered by the printed parent chain.

Series 1
Target: CCND1, cyclin fold, Cln2 fusion (human)
Technique: yeast growth competition, sequencing
Medium: yeast
Setting: weak parent motif
Reference: not given
Reading: higher = stronger binding
Endpoint: normalised enrichment score
Starting sequence: WEE1 docking peptide (human); HKTFRKLRLFDTP; partner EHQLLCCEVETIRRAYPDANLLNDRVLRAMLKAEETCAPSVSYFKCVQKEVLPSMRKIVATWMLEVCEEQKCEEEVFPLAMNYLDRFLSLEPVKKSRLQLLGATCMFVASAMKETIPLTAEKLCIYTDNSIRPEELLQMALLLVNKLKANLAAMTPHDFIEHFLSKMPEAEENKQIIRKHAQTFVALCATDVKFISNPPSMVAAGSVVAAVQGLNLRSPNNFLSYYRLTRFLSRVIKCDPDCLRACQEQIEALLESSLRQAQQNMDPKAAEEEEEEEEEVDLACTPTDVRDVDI
K6A: -0.088
F4W: 0.975
F10A: -0.28
L9H: -0.68
L7W: 0.56
K6Y: 0.692
F10N: -0.795
F10D: -0.973
K6R: -0.0333
H1Y: 0.223
L9F: -0.204
R5Q: 0.0893
R5K L9F: 0.0833
T3V: 1.35
F4R: 0.267
T3F: 0.0579
T12C: -0.155
R8P: -0.321
K2H: 0.189
R8H: 0.279
L7S: -0.888
F4Y: -0.527
L9K: -0.228
T3M: 0.465
K2Q: 0.173

Series 2
Target: Interferon regulatory factor 3, full length, phosphomimetic (IRF3, Homo sapiens, UniProt Q14653, residues 1-427, S386D/S396D/S398D/S402D/T404D/S405D)
Technique: protein-binding microarray
Form: double-stranded DNA, one strand shown
Medium: in vitro
Tested at: 2540 nM top
Setting: 60-bp whole probe
With: salmon DNA 0.4 mg/ml
Reference: random background probes
Reading: higher = stronger binding
Endpoint: fitted relative affinity
Shared flanks, not repeated: GCCTAGCAC … GTCTTGATTCGCTTGACGCTGCTG
Target sequence (chain): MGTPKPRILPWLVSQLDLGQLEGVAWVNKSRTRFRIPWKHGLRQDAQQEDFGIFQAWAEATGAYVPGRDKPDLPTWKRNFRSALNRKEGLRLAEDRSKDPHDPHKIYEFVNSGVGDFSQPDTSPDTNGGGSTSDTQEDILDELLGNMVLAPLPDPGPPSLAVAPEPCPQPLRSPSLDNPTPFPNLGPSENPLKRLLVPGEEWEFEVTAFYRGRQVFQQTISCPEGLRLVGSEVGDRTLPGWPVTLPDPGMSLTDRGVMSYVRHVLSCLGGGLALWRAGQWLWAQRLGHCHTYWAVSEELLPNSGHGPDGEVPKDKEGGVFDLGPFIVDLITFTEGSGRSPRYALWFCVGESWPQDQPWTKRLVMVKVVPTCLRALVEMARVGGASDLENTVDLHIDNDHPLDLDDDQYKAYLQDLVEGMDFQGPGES
CTAGGACTGGGGTATCGGTTAGTGCTA: 0.101 z-score
GACGGTATCGGGTTTCCGGACGTGCTA: 3.31 z-score
TTAGATATAGGGTTTCGATTAGTGCTA: 1.53 z-score
GATGGACTGCTTATCCTGACGTGCTAG: -0.277 z-score
GACGGAGTGGGTCTCGGGACGTGCTAG: -0.839 z-score
TCAATCGTCCCTTTGAGACTGTGCTAG: 0.415 z-score
CTAGGACTGGACACTGGGTTAGTGCTA: -0.819 z-score
GACGGTTTCATTCTCCTGACGTGCTAG: 6.22 z-score
TTAGGTATCGGTCTCGGCTAGTGCTAG: 4.21 z-score
TATCCTATCAGTTTAATATCGTGCTAG: 3.7 z-score
GACGGTTTCCAACTGCTGACGTGCTAG: 4.75 z-score
TCATCTTTTTTGTTCCAACTGTGCTAG: 1.69 z-score
TACGGTTTCCTTATCCTGACGTGCTAG: 7.68 z-score
GACGGACTGGGTCTCGAGACGTGCTAG: -0.695 z-score
ATTTTTCTAATTTACTTTGGGTGCTAG: 1.86 z-score
GACGGACTGGGGTATCGGGACGTGCTA: -0.484 z-score
TCAACCCTCCCTCTGTAAGTGTGCTAG: -0.053 z-score
TCATACATCTATGTAGAACTGTGCTAG: 0.192 z-score
TTAGGTCTCCTTCACCTTTAGTGCTAG: 0.595 z-score
TTAGATATTAGACTGGATTAGTGCTAG: -0.259 z-score
TTAGGTATCGACTATGGGTTAGTGCTA: 0.24 z-score
TTAGGTTTCGGGACTGGGTTAGTGCTA: 4.25 z-score
TCAAATATATATATTATACTGTGCTAG: 0.31 z-score
TTAGGACTGGGGGTTCGGTTAGTGCTA: -0.435 z-score
GAACCTTGGGCTCTAGGTTCGTGCTAG: -0.23 z-score

Series 3
Target: ABI1, truncated, D143A, DHFR fusion (Arabidopsis thaliana)
Technique: DHFR PCA, deep sequencing
Medium: yeast
Setting: methotrexate growth selection, single substitutions
With: (+)-ABA 710 µM
Reference: wild-type fitted maximum
Reading: higher = stronger binding
Endpoint: relative binding score
Starting sequence: PYL1, truncated, DHFR fusion (Arabidopsis thaliana); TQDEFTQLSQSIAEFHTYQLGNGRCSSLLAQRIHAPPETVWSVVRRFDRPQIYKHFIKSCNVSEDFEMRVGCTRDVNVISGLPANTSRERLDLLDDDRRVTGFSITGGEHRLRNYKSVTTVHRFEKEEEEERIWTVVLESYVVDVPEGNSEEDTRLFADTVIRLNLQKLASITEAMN; partner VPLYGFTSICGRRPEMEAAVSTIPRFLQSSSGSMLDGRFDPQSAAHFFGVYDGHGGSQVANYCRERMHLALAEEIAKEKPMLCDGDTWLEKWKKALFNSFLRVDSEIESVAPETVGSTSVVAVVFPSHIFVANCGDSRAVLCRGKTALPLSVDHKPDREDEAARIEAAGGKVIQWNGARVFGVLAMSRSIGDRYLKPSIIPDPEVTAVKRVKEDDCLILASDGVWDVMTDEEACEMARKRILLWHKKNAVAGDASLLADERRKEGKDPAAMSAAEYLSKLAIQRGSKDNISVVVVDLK
N22A: 105%
N22K: 104%
S117F: 3.7%
N114C: 86.5%
D144A: 82.4%
L8E: 82.8%
D159A: 85%
M176W: 93.6%
V143W: 1.65%
V43E: 56.2%
I52G: 96.5%
L28H: 77.1%
T120S: 111%
E131V: 109%
G81R: 48.7%
R24L: 99.4%
L94C: 96%
V137R: 2.43%
N61D: 98.2%
L112I: 63.7%
R88C: 103%

Series 4
Target: Ras GTPase-activating protein-binding protein 1, C-terminal RGG region (G3BP1, Homo sapiens, UniProt Q13283)
Sequence of UniProt Q13283 (whole entry, looked up): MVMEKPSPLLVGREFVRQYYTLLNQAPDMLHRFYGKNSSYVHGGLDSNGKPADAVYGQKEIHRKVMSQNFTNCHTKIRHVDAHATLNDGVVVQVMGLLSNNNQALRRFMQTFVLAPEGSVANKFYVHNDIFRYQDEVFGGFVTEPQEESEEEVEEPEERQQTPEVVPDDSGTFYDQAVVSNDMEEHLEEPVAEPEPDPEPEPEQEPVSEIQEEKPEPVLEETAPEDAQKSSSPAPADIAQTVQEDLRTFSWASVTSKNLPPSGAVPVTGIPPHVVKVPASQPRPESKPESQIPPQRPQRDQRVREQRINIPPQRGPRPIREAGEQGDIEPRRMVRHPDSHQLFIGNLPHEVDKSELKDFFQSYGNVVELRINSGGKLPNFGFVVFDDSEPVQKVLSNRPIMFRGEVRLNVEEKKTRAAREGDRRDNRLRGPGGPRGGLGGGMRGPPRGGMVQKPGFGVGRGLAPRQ
Technique: RNA Bind-n-Seq
Form: RNA
Medium: in vitro
Tested at: 1 µM
Setting: whole 134-nt RNA, ends assumed
With: 150 mM KCl
Reference: input library
Reading: higher = stronger binding
Endpoint: log2 enrichment
Shared flanks, not repeated: GGGAGUUCUACAGUCCGACGAUC … UGGAAUUCUCGGGUGUCAAGG
CCUCAAGUCCUGUGCUACACAUCGUAUGUACCGAAUCGGGGUUGGUUGGUUGGAAAGUAUUAUGUUACGCCGUUCGGAUCUGCACUUCCA: -0.738
CACAGACAACACGCACCGACACAGACACAGAGGGAAGGGGUUGGGAUGGGGACAGGGUGCACAGCAGGGCGGGGUAGGACCCCAGCCCCU: -0.355
AAGUCCUGUGCUACACAUCGUAUGUACCGAAUCGGUUUUGGGUUUUGGGGUUUUGGGAAAGUAUUAUGUUACGCCGUUCGGAUCUGCACU: -1.02
GCAGGAAGUAAAAACAAAUGGAAAAACUUCGGAUAGUGGCAGGGGUGGGGGUUGCUAAGGAAAGGGUGGGAUGGGAGUGGGUAAAGAGUU: 2.14
ACCAUGCAGGUGGGCAUCUUUGGGAAGUGGGGCAAGGGGGGGAUAGGGAUGGGGGUAACACUUUGGGAACAGGUGGUCCCAGGUCGUUUC: 2.76
UAACUUUAGAGGAGGAUCUGAUGGAUAUGGCAGUGGACGUGGAUUUGGGGAUGGCUAUAAUGGGUAUGGGGGAGGACCUGGAGGUGGCAA: -0.552
AAGUCCUGUGCUACACAUCGUAUGUACCGAAUCGGCCCCGGGCCCCGGGCCCCGGGGAAAGUAUUAUGUUACGCCGUUCGGAUCUGCACU: -2.12
CCUGUGCUACACAUCGUAUGUACCGAAUCGGCCCCCCCGGCCCCCCCGGGCCCCCCCGGGAAAGUAUUAUGUUACGCCGUUCGGAUCUGC: -1.27
AAGUCCUGUGCUACACAUCGUAUGUACCGAAUCGGAAAAAAAGGAAAAAAAGGUGGAAAGUAUUAUGUUACGCCGUUCGGAUCUGCACUU: -1.81
UUUGAUGACAGUCUGCAGGAGCUGCCUGGUGAAGUACCUGGAGGAGAACAACACCUGCCCCACCUGCAGGAUUGUGAUCCACCAGAGCCA: -0.836
CAAGUCCUGUGCUACACAUCGUAUGUACCGAAUCGGCCCCGGCCCCGGGCCCCGGAAAGUAUUAUGUUACGCCGUUCGGAUCUGCACUUC: -2.15
CAAGUCCUGUGCUACACAUCGUAUGUACCGAAUCGGGAAAAAAAGGGUGGGUGGGAAAGUAUUAUGUUACGCCGUUCGGAUCUGCACUUC: 1.3
AGUCCUGUGCUACACAUCGUAUGUACCGAAUCGGGAAAGGGAAAAAAAGGGUUUGGGAAAGUAUUAUGUUACGCCGUUCGGAUCUGCACU: 0.112
UCAAGUCCUGUGCUACACAUCGUAUGUACCGAAUCGGAAAGGAGGAAAAAAAGGAAAGUAUUAUGUUACGCCGUUCGGAUCUGCACUUCC: -1.44

Excerpt of the above (series 1):
T3F: 0.0579
T12C: -0.155
R8P: -0.321
K2H: 0.189
R8H: 0.279
L7S: -0.888
F4Y: -0.527
L9K: -0.228
T3M: 0.465
